Measurements pooled from the literature.
Each line is one published result; not all experiments were run side by side. ± marks the error that the study gave.
SNCA fibrils: Alpha-synuclein, fibrils (SNCA, Homo sapiens, UniProt P37840)

The chains behind the UniProt entries cited, without tags or fusion partners. Residues count along the entry.
UniProt P40763, whole entry: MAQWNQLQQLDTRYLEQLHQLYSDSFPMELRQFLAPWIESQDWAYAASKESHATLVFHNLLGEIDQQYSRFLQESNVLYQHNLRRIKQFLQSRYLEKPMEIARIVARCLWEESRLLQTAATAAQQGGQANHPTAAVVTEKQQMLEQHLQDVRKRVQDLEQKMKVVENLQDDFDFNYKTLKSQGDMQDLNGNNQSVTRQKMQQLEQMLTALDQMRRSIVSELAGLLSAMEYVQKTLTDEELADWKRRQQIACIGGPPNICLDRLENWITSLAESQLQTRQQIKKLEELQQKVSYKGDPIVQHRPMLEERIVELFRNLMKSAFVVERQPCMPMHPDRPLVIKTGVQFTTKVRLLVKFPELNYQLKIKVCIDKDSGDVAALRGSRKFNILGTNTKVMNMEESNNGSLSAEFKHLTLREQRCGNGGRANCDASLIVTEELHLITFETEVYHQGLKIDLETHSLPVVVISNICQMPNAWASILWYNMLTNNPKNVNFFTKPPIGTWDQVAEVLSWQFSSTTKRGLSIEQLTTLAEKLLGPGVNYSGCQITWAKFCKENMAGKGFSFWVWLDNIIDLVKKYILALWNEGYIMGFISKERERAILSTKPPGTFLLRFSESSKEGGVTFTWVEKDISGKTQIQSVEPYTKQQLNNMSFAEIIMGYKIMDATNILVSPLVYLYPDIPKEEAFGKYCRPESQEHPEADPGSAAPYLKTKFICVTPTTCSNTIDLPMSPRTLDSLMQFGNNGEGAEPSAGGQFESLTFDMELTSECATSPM
UniProt Q965W2, 130-405 limits assumed: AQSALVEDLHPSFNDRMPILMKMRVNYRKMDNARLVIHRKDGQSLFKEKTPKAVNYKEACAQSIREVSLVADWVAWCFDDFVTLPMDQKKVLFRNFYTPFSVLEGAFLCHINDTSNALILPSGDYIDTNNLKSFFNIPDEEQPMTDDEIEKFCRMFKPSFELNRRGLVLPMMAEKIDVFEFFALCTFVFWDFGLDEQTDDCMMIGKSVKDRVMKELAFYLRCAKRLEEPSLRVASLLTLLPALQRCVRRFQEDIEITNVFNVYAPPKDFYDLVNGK
UniProt P28223, whole entry: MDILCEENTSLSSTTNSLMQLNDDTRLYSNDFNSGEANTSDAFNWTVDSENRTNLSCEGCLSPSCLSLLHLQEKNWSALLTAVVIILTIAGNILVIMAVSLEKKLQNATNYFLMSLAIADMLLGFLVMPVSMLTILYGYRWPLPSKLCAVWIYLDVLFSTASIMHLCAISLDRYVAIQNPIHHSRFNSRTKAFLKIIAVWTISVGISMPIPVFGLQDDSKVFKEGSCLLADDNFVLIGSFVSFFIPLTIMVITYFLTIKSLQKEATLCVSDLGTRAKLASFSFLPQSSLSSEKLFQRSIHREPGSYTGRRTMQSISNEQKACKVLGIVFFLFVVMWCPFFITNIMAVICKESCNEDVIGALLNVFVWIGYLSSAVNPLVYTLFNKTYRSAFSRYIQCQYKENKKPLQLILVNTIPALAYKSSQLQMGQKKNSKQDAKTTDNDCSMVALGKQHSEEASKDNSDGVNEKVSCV
UniProt P40871, whole entry: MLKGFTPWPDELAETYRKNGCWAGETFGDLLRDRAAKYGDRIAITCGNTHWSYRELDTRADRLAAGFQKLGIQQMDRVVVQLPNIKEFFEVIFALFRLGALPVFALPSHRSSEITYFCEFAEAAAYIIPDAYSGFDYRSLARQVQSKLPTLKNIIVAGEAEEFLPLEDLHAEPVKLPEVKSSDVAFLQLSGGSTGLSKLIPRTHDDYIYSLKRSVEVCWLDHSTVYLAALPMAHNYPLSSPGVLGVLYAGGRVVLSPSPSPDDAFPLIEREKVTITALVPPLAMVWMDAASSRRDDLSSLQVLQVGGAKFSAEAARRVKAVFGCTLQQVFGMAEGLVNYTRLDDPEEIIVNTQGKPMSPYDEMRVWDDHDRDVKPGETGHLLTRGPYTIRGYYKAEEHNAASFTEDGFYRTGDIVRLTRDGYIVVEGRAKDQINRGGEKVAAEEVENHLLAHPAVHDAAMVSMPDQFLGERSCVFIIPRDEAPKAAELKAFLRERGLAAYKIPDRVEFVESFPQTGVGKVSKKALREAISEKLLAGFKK
UniProt Q5HH38, whole entry: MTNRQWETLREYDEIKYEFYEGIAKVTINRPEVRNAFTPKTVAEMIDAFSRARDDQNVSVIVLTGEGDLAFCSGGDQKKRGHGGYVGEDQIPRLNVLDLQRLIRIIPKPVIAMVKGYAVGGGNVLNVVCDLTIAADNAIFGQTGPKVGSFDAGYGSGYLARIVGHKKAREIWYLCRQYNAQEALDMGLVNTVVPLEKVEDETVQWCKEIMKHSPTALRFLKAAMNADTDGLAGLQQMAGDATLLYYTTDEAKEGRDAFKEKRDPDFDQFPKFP
UniProt O34453, whole entry I218V: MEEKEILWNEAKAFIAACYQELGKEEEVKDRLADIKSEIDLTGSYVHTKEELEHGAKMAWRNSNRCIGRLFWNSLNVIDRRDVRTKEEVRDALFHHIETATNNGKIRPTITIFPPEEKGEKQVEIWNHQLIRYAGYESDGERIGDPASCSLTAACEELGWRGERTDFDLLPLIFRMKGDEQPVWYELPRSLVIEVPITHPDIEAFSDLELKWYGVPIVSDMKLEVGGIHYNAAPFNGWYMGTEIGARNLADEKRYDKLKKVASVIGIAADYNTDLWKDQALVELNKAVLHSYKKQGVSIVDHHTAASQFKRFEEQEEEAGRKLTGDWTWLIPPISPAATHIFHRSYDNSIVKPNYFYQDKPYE
UniProt Q48485, 24-384 limits assumed: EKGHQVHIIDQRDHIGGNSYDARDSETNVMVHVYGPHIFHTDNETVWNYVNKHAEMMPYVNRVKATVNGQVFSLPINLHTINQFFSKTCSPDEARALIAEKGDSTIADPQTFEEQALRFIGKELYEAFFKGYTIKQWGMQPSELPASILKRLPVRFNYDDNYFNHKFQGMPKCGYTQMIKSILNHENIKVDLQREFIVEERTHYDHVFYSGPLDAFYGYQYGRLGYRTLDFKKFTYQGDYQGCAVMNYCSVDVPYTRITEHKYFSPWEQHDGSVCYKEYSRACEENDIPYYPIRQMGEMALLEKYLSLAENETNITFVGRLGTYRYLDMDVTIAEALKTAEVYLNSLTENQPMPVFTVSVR
UniProt P31652, whole entry: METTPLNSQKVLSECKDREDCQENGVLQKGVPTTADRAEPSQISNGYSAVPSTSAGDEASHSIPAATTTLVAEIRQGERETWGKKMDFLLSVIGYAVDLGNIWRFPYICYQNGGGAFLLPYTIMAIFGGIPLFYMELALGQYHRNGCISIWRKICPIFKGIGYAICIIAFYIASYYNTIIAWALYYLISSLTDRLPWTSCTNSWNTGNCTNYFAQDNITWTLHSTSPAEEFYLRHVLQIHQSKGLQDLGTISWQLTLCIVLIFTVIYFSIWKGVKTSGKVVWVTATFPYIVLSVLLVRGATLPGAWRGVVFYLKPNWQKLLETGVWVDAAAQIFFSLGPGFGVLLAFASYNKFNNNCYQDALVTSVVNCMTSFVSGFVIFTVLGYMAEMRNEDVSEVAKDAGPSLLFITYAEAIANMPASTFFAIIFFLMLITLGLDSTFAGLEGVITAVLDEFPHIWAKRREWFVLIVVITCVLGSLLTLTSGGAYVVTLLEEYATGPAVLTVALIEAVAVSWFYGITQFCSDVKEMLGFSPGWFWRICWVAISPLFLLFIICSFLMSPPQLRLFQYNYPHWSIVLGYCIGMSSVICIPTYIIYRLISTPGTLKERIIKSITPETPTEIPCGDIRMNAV

For `O=C(NC1CCN(c2ncnc3[nH]cnc23)CC1)c1cccc(NS(=O)(=O)c2ccc(Cl)cc2)c1`, the viability was 101% (A549-ACE2; 0.03048 µM).
The Kd of `CC(C)C(C(=O)N(Cc1ccc(C2CCCCC2)cc1)c1ccc(C(=O)O)cc1)N(C)S(=O)(=O)c1c(F)c(F)c(F)c(F)c1F` (stereo not drawn) is reported as 0.324 µM (STAT3 (Homo sapiens, UniProt P40763); surface plasmon resonance; His-tagged protein immobilized).
`NC[C@@H](NC[C@@H]1CCCN1C[C@@H](CO)NC[C@@H](NCCC12CC3CC(CC(C3)C1)C2)c1ccccc1)c1ccccc1`: “potentiation of amikacin” 1.3 fold (Escherichia coli; bacterial growth; 8 µM, fold shift of IC50, together with: amikacin).
The logP of `NCCNCCSc1ccccc1` is reported as -0.6 ± 0.03 (n-octanol/phosphate buffer; 25 µg/mL, pH 7.4).
The Kd of `Cc1ccc(Nc2nc(N)c3ccccc3n2)cc1Cl` is reported as 5.53 µM (Nuclear hormone receptor family member nhr-86 (nhr-86, Caenorhabditis elegans, UniProt Q965W2); binding, tryptophan fluorescence quenching; purified ligand-binding domain).
With `COc1ccc(CN[C@@H]2CO[C@H](C(c3ccccc3)c3ccccc3)C[C@H]2O)cc1` the inhibition was 12.7% (HTR2A (Homo sapiens, UniProt P28223); radioligand binding; 10 µM, together with: [3H]ketanserin).
With `COc1cc(/C=C/c2ccc3cc(O[11CH3])ccc3n2)ccn1` the Kd was 0.021 µM (SNCA fibrils; fibril binding, homologous radioligand competition; 1 h, 37 °C).
The Kd of `O=C(NS(=O)(=O)OC[C@H]1O[C@@H](n2cnc3c(NCc4ccccc4)ncnc32)[C@H](O)[C@@H]1O)c1ccccc1O` is reported as 1.86 µM (2,3-dihydroxybenzoate-AMP ligase (dhbE, Bacillus subtilis, UniProt P40871); binding).
`C[C@H](CS)C(=O)N[C@@H](Cc1c[nH]c2ccccc12)C(=O)O` — result for “MIC of meropenem”: 8 µg/mL (Enterobacter aerogenes; IMP-1 producing; 50 µM, together with: meropenem).
`CC(C)(COP(=O)(O)OP(=O)(O)OC[C@H]1O[C@@H](n2cnc3c(N)ncnc32)[C@H](O)[C@@H]1OP(=O)(O)O)[C@@H](O)C(=O)NCCC(=O)NCCSC(CC(=O)c1ccc(Cl)cc1)C(=O)O` (stereo partly drawn) has a Kd of 2.8 ± 0.2 µM (1,4-dihydroxy-2-naphthoyl-CoA synthase (menB, Staphylococcus aureus, UniProt Q5HH38); isothermal titration calorimetry; 22 °C).
With `Cc1cnc(Nc2ccc(N3CCN(C)CC3)cc2)nc1Nc1cccc(NS(=O)(=O)C(C)(C)C)c1` the Kd was 0.086 µM (Bromodomain-containing protein 4, BD1 (BRD4, Homo sapiens, UniProt O60885)).
For `Cc1cc(N)nc(-c2ccc(CNCCc3cccc(F)c3)cc2)c1`, the Kd was 58 ± 4 µM (Nitric oxide synthase oxygenase (Bacillus subtilis, UniProt O34453, I218V); binding, imidazole displacement; pH 7.6, together with: 1 mM imidazole).
`Cc1nc2c[nH]c(/C=C/C=C/c3ccc(N(C)C)cc3)cn-2c1=O` gave a Kd of 0.77 µM (SNCA fibrils; binding).
`O=C(O)CC1Sc2nnc(-c3cccs3)n2N=C1c1ccc(Cl)cc1` (stereo not drawn) gave a Kd of 9 ± 5 µM (UDP-galactopyranose mutase (Klebsiella pneumoniae, UniProt Q48485); binding, fluorescence polarization).
For `C[C@@H]1CN(C)CCN1c1nc(-c2ccc(F)cc2)cs1`, the Kd was 0.005 µM (Slc6a4 (Rattus norvegicus, UniProt P31652); HeLa transfected with Slc6a4, membranes).

A few entries again:
The logP of `NCCNCCSc1ccccc1` is reported as -0.6 ± 0.03 (n-octanol/phosphate buffer; 25 µg/mL, pH 7.4).
The Kd of `Cc1ccc(Nc2nc(N)c3ccccc3n2)cc1Cl` is reported as 5.53 µM (Nuclear hormone receptor family member nhr-86 (nhr-86, Caenorhabditis elegans, UniProt Q965W2); binding, tryptophan fluorescence quenching; purified ligand-binding domain).
